{"data": "Measured values of several laboratories", "note": "Protocols differ between the studies behind these lines. Numbers after ± are the reported error."}
{"Compound": "CO[C@@H]1[C@H](OC(=O)N2CC(CCN3CCOCC3)C2)CC[C@]2(CO2)[C@H]1[C@@]1(C)O[C@@H]1CC=C(C)C", "test system": "humans, plasma", "conditions": "subcutaneous, 1.8 mg twice weekly, first dose", "AUC(0-t)": "6.39 ± 3.06 ng·h/mL"}
{"Compound": "Cc1cc(C)c(CNC(=O)c2cc(Cl)c3c(c2C)O[C@@](C)([C@H]2CC[C@H](N(C)C)CC2)O3)c(=O)[nH]1", "test": "geometric LS mean", "test system": "healthy male humans, plasma", "conditions": "oral, dose not given, together with: fluconazole", "AUC(0-t)": "917 ng·h/mL"}
{"Compound": "NC[C@@]1(CC(=O)O)[C@@H]2CC[C@H]3C[C@@H]2[C@@H]1C3", "test system": "human, moderate renal impairment, plasma", "conditions": "oral, 20 mg single dose, geometric mean", "AUC(0-t)": "3860 ng·h/mL"}
{"Compound": "C=CC(=O)N(C)CCOc1c(N)ncnc1-c1cc(F)cc(NC(=O)c2ccc(C3CC3)cc2F)c1C", "test system": "human, whole blood", "conditions": "oral, 1.5 mg, single ascending dose", "AUC(0-t)": "0.32 ng·h/mL"}
{"Compound": "NC1(C(=O)N[C@@H](CCO)c2ccc(Cl)cc2)CCN(c2nc[nH]c3nccc2-3)CC1", "test system": "human patients, plasma", "conditions": "dose not given, cohort 160/400, cycle 2, geometric mean", "AUC(0-t)": "2120 ng·h/mL"}
{"Compound": "O=C(O)CCC(=O)O.[2H]C([2H])([2H])Oc1cc(C)c2[nH]ccc2c1CN1CC[C@@H](C2CC2)C[C@H]1c1ccc(C(=O)O)cc1", "test": "LC-MS/MS, geometric mean", "test system": "human, plasma", "conditions": "400 mg, single dose, fasting", "AUC(0-t)": "135000 ng·h/mL"}
{"Compound": "CN(CC#N)C(=O)C[C@H](Nc1nc2ccccc2[nH]1)c1cccc(C(F)(F)F)c1", "test system": "human", "conditions": "intravenous infusion, 2 mg/kg, 1 mg/mL formulation", "AUC(0-t)": "11100 ± 708 ng·h/mL"}
{"Compound": "CO[C@H]1C[C@@H]2CC[C@@H](C)[C@@](O)(O2)C(=O)C(=O)N2CCCC[C@H]2C(=O)O[C@H]([C@H](C)C[C@@H]2CC[C@@H](OC(=O)NCCOCCOCCOCCOCCOCCOCCOCCOCCC(=O)N3CCc4cc(Cn5nc(-c6ccc7oc(N)nc7c6)c6c(N)ncnc65)ccc4C3)[C@H](OC)C2)C[C@@H](O)[C@H](C)/C=C(\\C)[C@@H](O)[C@@H](OC)C(=O)[C@H](C)C[C@H](C)/C=C/C=C/C=C/1C", "test system": "human, plasma", "conditions": "intravenous, 12 mg, cycle 1 day 15, arithmetic mean", "AUC(0-t)": "1210 ng·h/mL"}
{"Compound": "Cl.[2H]C([2H])([2H])CC(=O)c1cnc(NC(=O)C2CC2)cc1Nc1cccc(-c2ncn(C([2H])([2H])[2H])n2)c1OC", "test": "geometric mean", "test system": "human", "conditions": "oral, 50 mg single dose, fasted, liquid", "AUC(0-t)": "4100 ng·h/mL"}
{"Compound": "C[C@H]1CN(C(=O)CC#N)[C@]12CCN(c1ncnc3[nH]ccc13)C2", "test system": "healthy human, plasma", "conditions": "oral, 3 mg single, mean", "AUC(0-t)": "59.6 ng·h/mL"}
{"Compound": "C=CCn1c(=O)c2cnc(Nc3ccc(N4CCN(C)CC4)cc3)nc2n1-c1cccc(C(C)(C)O)n1", "test system": "human", "conditions": "oral, 250 mg once daily, cycle 1 day 17, together with: durvalumab 1500 mg IV", "how to read": "geometric mean", "AUC(0-t)": "6.13 µM·h"}
{"Compound": "Cc1cc(-c2nnc(N)nc2-c2ccc(F)cc2)cc(Cl)n1", "test system": "human patients, plasma", "conditions": "oral, 100 mg nanosuspension once daily, multiple doses, arithmetic mean", "AUC(0-t)": "4850 ng·h/mL"}
{"note": "A few entries again:"}
{"Compound": "NC[C@@]1(CC(=O)O)[C@@H]2CC[C@H]3C[C@@H]2[C@@H]1C3", "test system": "human, moderate renal impairment, plasma", "conditions": "oral, 20 mg single dose, geometric mean", "AUC(0-t)": "3860 ng·h/mL"}
{"Compound": "O=C(O)CCC(=O)O.[2H]C([2H])([2H])Oc1cc(C)c2[nH]ccc2c1CN1CC[C@@H](C2CC2)C[C@H]1c1ccc(C(=O)O)cc1", "test": "LC-MS/MS, geometric mean", "test system": "human, plasma", "conditions": "400 mg, single dose, fasting", "AUC(0-t)": "135000 ng·h/mL"}
